Published values gathered from unrelated publications.
Each numbered part is a random draw from the data of one study; scales do not carry over between parts.
Sequence of UniProt P36897 (whole entry, looked up): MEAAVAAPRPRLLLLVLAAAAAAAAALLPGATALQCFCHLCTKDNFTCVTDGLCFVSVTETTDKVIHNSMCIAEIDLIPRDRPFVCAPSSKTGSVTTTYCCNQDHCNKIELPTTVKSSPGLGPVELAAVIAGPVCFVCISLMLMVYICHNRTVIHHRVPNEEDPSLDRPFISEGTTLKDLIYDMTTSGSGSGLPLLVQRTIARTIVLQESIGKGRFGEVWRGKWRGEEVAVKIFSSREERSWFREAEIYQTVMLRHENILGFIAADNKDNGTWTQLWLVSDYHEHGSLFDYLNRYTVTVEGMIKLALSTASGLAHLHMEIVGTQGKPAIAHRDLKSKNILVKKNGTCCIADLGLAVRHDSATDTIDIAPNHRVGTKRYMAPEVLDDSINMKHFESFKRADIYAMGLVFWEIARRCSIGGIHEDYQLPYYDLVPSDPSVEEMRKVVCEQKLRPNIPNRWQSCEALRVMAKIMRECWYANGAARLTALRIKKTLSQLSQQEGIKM
Sequence of UniProt Q99683 (whole entry, looked up): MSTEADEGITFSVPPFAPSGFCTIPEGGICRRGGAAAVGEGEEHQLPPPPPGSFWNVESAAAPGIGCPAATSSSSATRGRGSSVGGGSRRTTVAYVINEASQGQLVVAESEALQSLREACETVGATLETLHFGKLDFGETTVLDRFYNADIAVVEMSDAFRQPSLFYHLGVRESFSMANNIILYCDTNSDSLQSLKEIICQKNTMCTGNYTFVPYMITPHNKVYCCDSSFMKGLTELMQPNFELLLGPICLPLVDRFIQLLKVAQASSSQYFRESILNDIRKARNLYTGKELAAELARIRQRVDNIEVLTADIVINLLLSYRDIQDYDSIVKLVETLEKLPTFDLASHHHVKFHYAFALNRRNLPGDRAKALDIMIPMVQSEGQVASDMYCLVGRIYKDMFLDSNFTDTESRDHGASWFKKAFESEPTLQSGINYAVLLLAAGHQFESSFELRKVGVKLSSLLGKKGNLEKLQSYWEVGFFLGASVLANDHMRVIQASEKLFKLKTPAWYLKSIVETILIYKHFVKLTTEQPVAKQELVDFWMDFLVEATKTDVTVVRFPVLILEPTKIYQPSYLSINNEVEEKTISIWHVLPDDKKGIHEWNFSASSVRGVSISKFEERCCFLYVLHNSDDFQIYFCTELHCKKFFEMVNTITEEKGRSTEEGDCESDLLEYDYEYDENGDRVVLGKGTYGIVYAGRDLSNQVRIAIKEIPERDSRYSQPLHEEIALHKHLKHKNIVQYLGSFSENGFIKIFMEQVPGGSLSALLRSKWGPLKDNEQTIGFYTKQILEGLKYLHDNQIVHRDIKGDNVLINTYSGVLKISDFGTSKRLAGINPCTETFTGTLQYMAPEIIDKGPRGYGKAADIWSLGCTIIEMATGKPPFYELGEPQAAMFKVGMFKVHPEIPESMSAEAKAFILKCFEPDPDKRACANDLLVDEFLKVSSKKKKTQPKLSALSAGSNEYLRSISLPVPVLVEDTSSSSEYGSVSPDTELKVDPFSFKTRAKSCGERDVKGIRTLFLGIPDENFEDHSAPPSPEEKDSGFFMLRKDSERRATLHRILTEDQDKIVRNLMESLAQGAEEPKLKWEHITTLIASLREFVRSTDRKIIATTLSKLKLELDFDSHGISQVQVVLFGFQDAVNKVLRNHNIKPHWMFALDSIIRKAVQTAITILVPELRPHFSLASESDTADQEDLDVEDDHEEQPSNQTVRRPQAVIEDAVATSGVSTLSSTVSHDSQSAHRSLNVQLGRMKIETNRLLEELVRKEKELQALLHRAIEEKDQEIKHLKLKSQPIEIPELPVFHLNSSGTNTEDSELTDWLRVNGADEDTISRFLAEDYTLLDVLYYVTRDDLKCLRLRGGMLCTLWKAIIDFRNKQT
Sequence of UniProt Q86UE8 (whole entry, looked up): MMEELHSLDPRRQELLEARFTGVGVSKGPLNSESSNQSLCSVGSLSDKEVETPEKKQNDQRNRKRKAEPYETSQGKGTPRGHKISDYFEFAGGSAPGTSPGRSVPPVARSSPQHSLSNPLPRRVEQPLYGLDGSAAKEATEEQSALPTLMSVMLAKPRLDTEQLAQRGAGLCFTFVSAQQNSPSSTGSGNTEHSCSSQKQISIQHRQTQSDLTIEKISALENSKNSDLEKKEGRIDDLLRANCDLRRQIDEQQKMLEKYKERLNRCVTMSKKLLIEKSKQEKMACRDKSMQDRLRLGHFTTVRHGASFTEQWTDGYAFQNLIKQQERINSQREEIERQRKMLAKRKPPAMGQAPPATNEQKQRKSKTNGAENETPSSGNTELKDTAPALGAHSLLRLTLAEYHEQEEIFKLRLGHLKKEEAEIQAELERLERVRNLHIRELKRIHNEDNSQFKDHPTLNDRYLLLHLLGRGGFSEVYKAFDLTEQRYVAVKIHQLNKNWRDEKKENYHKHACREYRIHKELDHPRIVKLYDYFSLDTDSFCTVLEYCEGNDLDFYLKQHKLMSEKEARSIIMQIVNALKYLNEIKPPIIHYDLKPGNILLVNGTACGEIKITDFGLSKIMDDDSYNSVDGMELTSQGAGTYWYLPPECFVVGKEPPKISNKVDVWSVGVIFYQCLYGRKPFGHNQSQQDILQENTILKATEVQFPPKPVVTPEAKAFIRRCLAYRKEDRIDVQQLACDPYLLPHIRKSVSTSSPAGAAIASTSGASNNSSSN
Sequence of UniProt Q8TDC3 (whole entry, looked up): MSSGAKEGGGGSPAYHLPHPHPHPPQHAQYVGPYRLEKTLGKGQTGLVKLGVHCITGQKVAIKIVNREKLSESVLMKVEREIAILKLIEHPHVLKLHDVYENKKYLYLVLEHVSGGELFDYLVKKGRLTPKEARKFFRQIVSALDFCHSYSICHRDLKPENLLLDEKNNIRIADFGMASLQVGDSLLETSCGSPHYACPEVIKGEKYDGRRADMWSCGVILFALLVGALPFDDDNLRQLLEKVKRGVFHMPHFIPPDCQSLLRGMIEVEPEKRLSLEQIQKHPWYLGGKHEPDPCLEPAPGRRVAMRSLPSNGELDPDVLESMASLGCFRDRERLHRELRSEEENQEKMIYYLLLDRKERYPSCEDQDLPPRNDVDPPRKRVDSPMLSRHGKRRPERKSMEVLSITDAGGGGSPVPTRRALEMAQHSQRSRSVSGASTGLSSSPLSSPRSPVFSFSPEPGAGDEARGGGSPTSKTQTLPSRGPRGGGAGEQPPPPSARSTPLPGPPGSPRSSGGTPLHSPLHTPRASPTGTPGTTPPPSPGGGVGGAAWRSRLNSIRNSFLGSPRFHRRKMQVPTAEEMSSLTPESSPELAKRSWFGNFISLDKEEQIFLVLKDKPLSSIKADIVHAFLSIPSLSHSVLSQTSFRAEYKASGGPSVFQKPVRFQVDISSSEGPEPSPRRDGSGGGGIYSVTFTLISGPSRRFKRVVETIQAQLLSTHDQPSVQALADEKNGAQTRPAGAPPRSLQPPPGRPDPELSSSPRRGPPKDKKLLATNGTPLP
Sequence of UniProt Q9UM73 (whole entry, unmodified, looked up): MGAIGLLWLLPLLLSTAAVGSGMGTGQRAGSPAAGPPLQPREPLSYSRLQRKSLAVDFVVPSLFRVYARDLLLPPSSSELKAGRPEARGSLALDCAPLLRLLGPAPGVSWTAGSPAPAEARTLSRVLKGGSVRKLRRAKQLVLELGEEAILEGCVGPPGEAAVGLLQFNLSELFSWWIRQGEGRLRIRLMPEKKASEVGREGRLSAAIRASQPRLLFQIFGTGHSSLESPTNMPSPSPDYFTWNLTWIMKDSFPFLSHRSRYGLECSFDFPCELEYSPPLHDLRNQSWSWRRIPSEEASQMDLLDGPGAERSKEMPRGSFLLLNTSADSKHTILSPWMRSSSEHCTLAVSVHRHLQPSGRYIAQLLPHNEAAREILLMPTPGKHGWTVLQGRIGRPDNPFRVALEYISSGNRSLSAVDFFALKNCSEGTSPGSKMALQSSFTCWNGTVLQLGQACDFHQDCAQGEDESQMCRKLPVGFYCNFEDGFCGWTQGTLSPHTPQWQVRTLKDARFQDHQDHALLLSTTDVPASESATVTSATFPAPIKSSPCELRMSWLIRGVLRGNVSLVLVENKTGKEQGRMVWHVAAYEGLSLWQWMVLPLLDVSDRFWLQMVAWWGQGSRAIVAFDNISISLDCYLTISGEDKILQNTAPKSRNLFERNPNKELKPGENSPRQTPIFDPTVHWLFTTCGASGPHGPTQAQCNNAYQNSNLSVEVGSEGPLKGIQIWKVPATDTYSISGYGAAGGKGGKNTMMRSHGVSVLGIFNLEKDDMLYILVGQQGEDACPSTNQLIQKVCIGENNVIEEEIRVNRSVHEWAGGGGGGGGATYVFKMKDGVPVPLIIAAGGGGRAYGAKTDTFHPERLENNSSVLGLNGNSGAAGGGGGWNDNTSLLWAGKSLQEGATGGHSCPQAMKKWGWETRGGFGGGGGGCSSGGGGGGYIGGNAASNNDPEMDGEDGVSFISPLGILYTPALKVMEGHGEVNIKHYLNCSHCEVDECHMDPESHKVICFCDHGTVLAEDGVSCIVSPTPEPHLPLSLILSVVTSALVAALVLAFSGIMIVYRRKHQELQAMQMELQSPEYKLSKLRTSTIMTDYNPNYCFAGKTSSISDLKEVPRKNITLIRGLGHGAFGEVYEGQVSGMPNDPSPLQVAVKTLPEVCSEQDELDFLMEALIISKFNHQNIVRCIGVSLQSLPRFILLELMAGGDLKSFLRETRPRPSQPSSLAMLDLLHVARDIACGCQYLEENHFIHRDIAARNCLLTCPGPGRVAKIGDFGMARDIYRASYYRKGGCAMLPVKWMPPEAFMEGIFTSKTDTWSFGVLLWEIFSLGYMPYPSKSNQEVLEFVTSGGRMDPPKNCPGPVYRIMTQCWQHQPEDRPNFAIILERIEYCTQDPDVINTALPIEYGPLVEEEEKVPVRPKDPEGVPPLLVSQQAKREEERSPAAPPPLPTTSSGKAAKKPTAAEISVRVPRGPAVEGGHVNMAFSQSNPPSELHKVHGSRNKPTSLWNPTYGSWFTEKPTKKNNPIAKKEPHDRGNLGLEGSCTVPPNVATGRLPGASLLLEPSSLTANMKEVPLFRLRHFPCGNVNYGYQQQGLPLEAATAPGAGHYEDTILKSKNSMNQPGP

Series 1 — cell line: mouse MPNST tumor cells; technique: high-content nuclear imaging; refers to: cell number; tested at: 10 µM; time: 12 h; notes: mean of 2 replicates; reference: plate mean; reading: higher = more cells
With Cc1c(C(=O)NCc2cccnc2)nn(-c2ccc(Cl)cc2Cl)c1-c1ccc(Cl)cc1 the nuclei count was -0.855 z-score.
For Nc1ncn([C@H]2C[C@H](O)[C@@H](CO)O2)c(=O)n1, the nuclei count was 0.0764 z-score.
For COc1cc(/C=C2\CCCN([C@@H](C)c3ccc(F)cc3)C2=O)ccc1-n1cnc(C)c1, the nuclei count was 3.89 z-score.
O=C(O)c1ccccc1NC(=O)N1CCC(c2ccccc2C(F)(F)F)CC1 gave a nuclei count of 1.4 z-score.

Series 2 — organism: Sarcocystis neurona; observed: parasite activity; tested at: 10 µM; time: 96 h
CN(C)[C@@H]1C(O)=C(C(N)=O)C(=O)[C@@]2(O)C(O)=C3C(=O)c4c(O)ccc(Cl)c4[C@@H](O)[C@H]3C[C@@H]12: activity class “inactive”.
COc1cc(-c2ccc(=O)[nH]n2)ccc1OC(F)F — result for activity class: “inactive”.
Under activity class, CC(COc1ccccc1)NC(C)C(O)c1ccc(O)cc1 (stereo not drawn) is recorded as “inactive”.
Under activity class, NC(=O)N1c2ccccc2C=Cc2ccccc21 is recorded as “inactive”.
For O=C1CC[C@@H](C(=O)N2CSC[C@H]2C(=O)O)N1, activity class read “inactive”.

Series 3 — observed: enzyme activity; mode: inhibitor; tested at: 0.5 µM; reference: control
Target: Serine/threonine-protein kinase ULK2 (ULK2, Homo sapiens, UniProt Q8IYT8)
Target sequence (Q8IYT8 1-1036): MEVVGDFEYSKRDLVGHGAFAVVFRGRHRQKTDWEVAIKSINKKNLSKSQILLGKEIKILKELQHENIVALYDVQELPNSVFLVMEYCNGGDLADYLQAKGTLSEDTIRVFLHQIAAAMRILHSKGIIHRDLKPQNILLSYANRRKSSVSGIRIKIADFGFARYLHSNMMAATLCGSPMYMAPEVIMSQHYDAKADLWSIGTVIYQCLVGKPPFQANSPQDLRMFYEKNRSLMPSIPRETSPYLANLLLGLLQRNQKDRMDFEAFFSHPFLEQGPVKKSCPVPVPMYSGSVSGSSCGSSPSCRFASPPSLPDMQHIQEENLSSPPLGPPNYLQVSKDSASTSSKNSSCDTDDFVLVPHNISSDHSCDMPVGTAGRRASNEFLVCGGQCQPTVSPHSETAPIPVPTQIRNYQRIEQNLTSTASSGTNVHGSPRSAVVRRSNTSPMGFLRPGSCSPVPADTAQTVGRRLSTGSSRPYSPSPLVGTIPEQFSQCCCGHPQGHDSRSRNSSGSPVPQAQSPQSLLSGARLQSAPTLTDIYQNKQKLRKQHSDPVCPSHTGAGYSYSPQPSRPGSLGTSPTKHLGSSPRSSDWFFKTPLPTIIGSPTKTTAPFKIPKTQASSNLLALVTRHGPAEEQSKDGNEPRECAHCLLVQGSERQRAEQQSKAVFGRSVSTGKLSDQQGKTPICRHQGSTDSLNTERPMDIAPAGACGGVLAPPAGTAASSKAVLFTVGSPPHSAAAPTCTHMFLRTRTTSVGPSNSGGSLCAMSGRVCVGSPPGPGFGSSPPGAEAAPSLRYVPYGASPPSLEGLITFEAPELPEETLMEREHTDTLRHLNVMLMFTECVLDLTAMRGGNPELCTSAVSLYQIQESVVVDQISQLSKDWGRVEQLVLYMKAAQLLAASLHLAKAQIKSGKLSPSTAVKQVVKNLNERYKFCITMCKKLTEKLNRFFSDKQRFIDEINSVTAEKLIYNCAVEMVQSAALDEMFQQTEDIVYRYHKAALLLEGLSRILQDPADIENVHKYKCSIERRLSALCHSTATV
For CN(C)c1ccc(C=C2C(=O)Nc3ccccc32)cc1, the remaining activity was 97.1%.
For Cc1ccc(Nc2nccc(N(C)c3ccc4c(C)n(C)nc4c3)n2)cc1S(N)(=O)=O, the remaining activity was 102%.
O=C1NC(=O)C(c2cn(CCCn3ccnc3)c3ccccc23)=C1Nc1ccccc1 gave a remaining activity of 91.7%.
With O=C1NC(=O)C(c2cn(CCCO)c3ncccc23)=C1c1cnccn1 the remaining activity was 96.7%.
With Cc1ccc(NC(=O)c2ccc(CN3CCN(C)CC3)cc2)cc1Nc1nc(-c2cccnc2)cs1 the remaining activity was 103%.
For Nc1[nH]nc2nc3ccccc3nc12, the remaining activity was 95.9%.
O=C(Nc1cccc(Nc2cc(Nc3cccc(C(F)(F)F)c3)ncn2)c1)C1CC1 has a remaining activity of 102%.
With COc1ccc(OC)c2c(=S)c3ccccc3[nH]c12 the remaining activity was 94.7%.
O=C(O)c1ccc2c3c1cccc3c(=O)n1c3ccccc3nc21 gave a remaining activity of 93.9%.
O=S(=O)(c1cccc2cnccc12)N1CCCNCC1 gave a remaining activity of 101%.
The remaining activity of OCC(O)CCON=C1C(c2c(O)[nH]c3ccccc23)=Nc2ccccc21 (stereo not drawn) is reported as 102%.
With COc1cc2ncnc(Nc3ccc(F)c(Cl)c3)c2cc1OCCCN1CCOCC1 the remaining activity was 104%.
The remaining activity of Nc1ncnc2n[nH]c(Nc3ccc(F)cc3)c12 is reported as 110%.
For Cc1nc(-c2ccccc2)c(-c2ccncc2)o1, the remaining activity was 102%.

Series 4 — Structure (SMILES): O=c1nc(-c2ccccn2)sc2ccccc12; technique: competition with immobilised ligand; tested at: 1 µM
It gave 93% for remaining binding (ALK (Homo sapiens, UniProt Q9UM73, L1196M); cell-free assay).
It gave 85% for remaining binding (SLK (Homo sapiens, UniProt Q9H2G2); binding).
The remaining binding was 77% (TRPM6 (Homo sapiens, UniProt Q9BX84); cell-free assay).
The remaining binding was 97% (TGFBR1 (Homo sapiens, UniProt P36897); cell-free assay).
The remaining binding was 96% (TLK2 (Homo sapiens, UniProt Q86UE8); cell-free assay).
For BRSK1 (Homo sapiens, UniProt Q8TDC3); binding: remaining binding read 91%.
For MAP3K5 (Homo sapiens, UniProt Q99683); binding: remaining binding read 75%.
